Results collected from several papers.
Each numbered part is a random draw from the data of one study; scales do not carry over between parts. Changes are numbered by the printed parent chain.

Set 1
Target: CCNB2, cyclin fold, Cln2 fusion (human)
Method: yeast growth competition, sequencing
Matrix: yeast
Notes: weak parent motif
Baseline: not given
Direction: higher = stronger binding
Parent: RB1 docking peptide (human); PKPLKKLRFDIEG; partner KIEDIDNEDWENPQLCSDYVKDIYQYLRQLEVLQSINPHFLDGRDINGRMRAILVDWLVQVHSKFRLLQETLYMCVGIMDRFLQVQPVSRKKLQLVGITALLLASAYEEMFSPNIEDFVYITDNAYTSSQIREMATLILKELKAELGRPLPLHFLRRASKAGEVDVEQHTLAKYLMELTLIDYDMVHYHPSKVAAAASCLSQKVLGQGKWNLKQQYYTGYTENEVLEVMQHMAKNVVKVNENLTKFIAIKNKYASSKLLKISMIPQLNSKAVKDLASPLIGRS
`PKPLKKLNFDIEG [R8N]`: “normalised enrichment score” -0.153.
`PKPLKKLRFDIIG [E12I]`: “normalised enrichment score” 0.788.
Under “normalised enrichment score”, `PKPLKKLIFDIEG [R8I]` is recorded as 0.157.
`PKPLKKNRFDIEG [L7N]` — result for “normalised enrichment score”: -0.167.
`PKILKKLRFDIEG [P3I]`: “normalised enrichment score” 0.183.
Under “normalised enrichment score”, `PKPLKKLRFDIKG [E12K]` is recorded as -0.164.
`PKPLRKLRLDIEG [K5R F9L]` — result for “normalised enrichment score”: -0.108.
Under “normalised enrichment score”, `PKPLKKLRFDWEG [I11W]` is recorded as 0.257.
`PKPLKKLRFDIMG [E12M]` — result for “normalised enrichment score”: 0.495.
`PKPLKKIRFDIEG [L7I]` — result for “normalised enrichment score”: 0.702.
`PKNLKKLRFDIEG [P3N]` — result for “normalised enrichment score”: 0.14.
`PKPSKKLRFDIEG [L4S]`: “normalised enrichment score” 0.396.
`PKPLKKLRFDIWG [E12W]`: “normalised enrichment score” 0.567.
`PKPLKKLRFDQEG [I11Q]`: “normalised enrichment score” -0.248.
Under “normalised enrichment score”, `PKPLKKLRMDIEG [F9M]` is recorded as 0.366.
`YKPLKKLRFDIEG [P1Y]` — result for “normalised enrichment score”: 0.318.
For `PKPLKKLRWDIEG [F9W]`, “normalised enrichment score” read 0.298.

Set 2
Target: ABI1, truncated, D143A, DHFR fusion (Arabidopsis thaliana)
Method: DHFR PCA, deep sequencing
Matrix: yeast
Notes: methotrexate growth selection, single substitutions
Together with: (+)-ABA 17 µM
Baseline: wild-type fitted maximum
Direction: higher = stronger binding
Parent: PYL1, truncated, DHFR fusion (Arabidopsis thaliana); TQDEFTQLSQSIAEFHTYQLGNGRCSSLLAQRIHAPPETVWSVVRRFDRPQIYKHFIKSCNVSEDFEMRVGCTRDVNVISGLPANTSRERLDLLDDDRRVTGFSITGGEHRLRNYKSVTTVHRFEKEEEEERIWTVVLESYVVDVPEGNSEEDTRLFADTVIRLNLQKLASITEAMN; partner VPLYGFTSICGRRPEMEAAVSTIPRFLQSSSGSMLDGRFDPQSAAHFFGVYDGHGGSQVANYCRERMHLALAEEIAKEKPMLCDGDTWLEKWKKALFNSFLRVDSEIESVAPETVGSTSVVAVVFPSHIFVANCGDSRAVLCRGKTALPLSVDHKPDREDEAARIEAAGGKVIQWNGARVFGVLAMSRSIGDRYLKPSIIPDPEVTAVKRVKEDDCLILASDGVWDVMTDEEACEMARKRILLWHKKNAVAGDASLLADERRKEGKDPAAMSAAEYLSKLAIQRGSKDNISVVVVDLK
`R90M`: “relative binding score” 52.2%.
For `N77W`, “relative binding score” read 74.2%.
For `E151P`, “relative binding score” read 90.5%.
`V62T` — result for “relative binding score”: 80.2%.
`I172Q`: “relative binding score” 38.4%.
Under “relative binding score”, `N77S` is recorded as 92.7%.
`D92E`: “relative binding score” 65.2%.
Under “relative binding score”, `Q167L` is recorded as 78.7%.
Under “relative binding score”, `R88L` is recorded as 80%.
Under “relative binding score”, `R132I` is recorded as 79.2%.
Under “relative binding score”, `V100G` is recorded as -1.44%.
`D97L`: “relative binding score” 65.6%.
For `E125H`, “relative binding score” read 92.8%.
`G23T`: “relative binding score” 57.6%.
Under “relative binding score”, `R88T` is recorded as 88%.
`N77P`: “relative binding score” -7.48%.
`N77Q`: “relative binding score” 92.6%.
`M68K` — result for “relative binding score”: 36.6%.
Under “relative binding score”, `I12K` is recorded as 37.1%.
For `L112C`, “relative binding score” read 22.5%.
`R90I`: “relative binding score” 44.9%.
Under “relative binding score”, `G102C` is recorded as 15.4%.
`M68W`: “relative binding score” 40.3%.
`F5G` — result for “relative binding score”: 68.5%.

Set 3
Target: Fragile X messenger ribonucleoprotein 1, C-terminal low-complexity region (Fmr1, Mus musculus, UniProt P35922)
Method: RNA Bind-n-Seq
Molecule type: RNA
Matrix: in vitro
Tested at: 200 nM
Notes: whole 134-nt RNA, ends assumed
Together with: 150 mM LiCl
Baseline: input library
Direction: higher = stronger binding
All molecules: 7-deaza-guanosine replaces G
For `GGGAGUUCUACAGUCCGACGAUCGUCCUGUGCUACACAUCGUAUGUACCGAAUCGGGAAAAAGGGAAAGGGUUUUUUUGGGAAAGUAUUAUGUUACGCCGUUCGGAUCUGCACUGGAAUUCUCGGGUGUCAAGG`, the log2 enrichment was -1.54.
With `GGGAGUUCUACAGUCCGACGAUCAAGUCCUGUGCUACACAUCGUAUGUACCGAAUCGGGAAAGGGUUUUUUUGGGUGGGAAAGUAUUAUGUUACGCCGUUCGGAUCUGCACUUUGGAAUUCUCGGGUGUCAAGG` the log2 enrichment was -1.82.
With `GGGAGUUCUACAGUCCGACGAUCGUCCUGUGCUACACAUCGUAUGUACCGAAUCGGGUUUGGGAAAAAGGGAAAAAAAGGGAAAGUAUUAUGUUACGCCGUUCGGAUCUGCACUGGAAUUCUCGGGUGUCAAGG` the log2 enrichment was -0.156.
For `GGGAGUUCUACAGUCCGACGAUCGUCCUGUGCUACACAUCGUAUGUACCGAAUCGGGGAGGGGUUUUUGGGGUUUUUGGGGAAAGUAUUAUGUUACGCCGUUCGGAUCUGCACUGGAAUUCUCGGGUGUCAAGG`, the log2 enrichment was 0.241.
The log2 enrichment of `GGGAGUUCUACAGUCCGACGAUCGUCCUGUGCUACACAUCGUAUGUACCGAAUCGGUUUUUGGUUUUUUUGGUUUUUUUGGAAAGUAUUAUGUUACGCCGUUCGGAUCUGCACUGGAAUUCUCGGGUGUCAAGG` is reported as -1.6.
`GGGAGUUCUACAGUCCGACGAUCGUCCUGUGCUACACAUCGUAUGUACCGAAUCGGGGCCCCCGGGGCCCCCGGCCCCCGGAAAGUAUUAUGUUACGCCGUUCGGAUCUGCACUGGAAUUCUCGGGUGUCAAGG` has a log2 enrichment of -1.13.
With `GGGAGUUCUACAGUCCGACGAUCUCUUCCGUGACAUUUCAUUUGGGGAACAACUUUUCUCUUUACAGGCCCGAGUGACUAAGGGAUGUACCAUUGUUAAGCCUUUCAACCUGUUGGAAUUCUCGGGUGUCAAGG` the log2 enrichment was 1.24.
The log2 enrichment of `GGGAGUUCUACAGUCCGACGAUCUGGCCCUGGUGGCAUGCGGGGAGGAAGAGGUGGCCUCAUCGAUCGUGGUGGUCCCGGUGGAAUGUUCAGAGGUGGCCGUGGUGGAGACAGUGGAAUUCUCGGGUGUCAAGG` is reported as 0.0569.
For `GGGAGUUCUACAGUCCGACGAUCGUCCUGUGCUACACAUCGUAUGUACCGAAUCGGCCCCCGGCCCCCGGGGCCCCCGGGGAAAGUAUUAUGUUACGCCGUUCGGAUCUGCACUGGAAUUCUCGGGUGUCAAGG`, the log2 enrichment was -1.8.
The log2 enrichment of `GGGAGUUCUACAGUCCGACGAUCCCUCAAGUCCUGUGCUACACAUCGUAUGUACCGAAUCGGGGUGGUGGGGUGGGAAAGUAUUAUGUUACGCCGUUCGGAUCUGCACUUCCAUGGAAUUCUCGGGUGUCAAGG` is reported as -1.05.
`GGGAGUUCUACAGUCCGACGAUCAAGUCCUGUGCUACACAUCGUAUGUACCGAAUCGGGAGGGAAAAAAAGGGUUUGGGAAAGUAUUAUGUUACGCCGUUCGGAUCUGCACUUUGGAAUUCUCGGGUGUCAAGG` has a log2 enrichment of -2.5.

Set 4
Target: Sal-like protein 4, full length isoform B (SALL4, Homo sapiens, UniProt Q9UJQ4-2, residues 1-616)
Method: universal PBM
Molecule type: double-stranded DNA, one strand shown
Matrix: in vitro
Tested at: not given
Notes: 8-mer, flanks averaged, mean of replicates
Direction: higher = stronger binding
`CTATCCAA` gave an E-score of 0.0886.
`CCGATAAA` gave an E-score of 0.171.
`CCATCACG` has an E-score of -0.0527.
For `CTAGAAAG`, the E-score was 0.0277.
The E-score of `GGACCTCC` is reported as -0.324.
With `CTTTTTGC` the E-score was -0.0921.
`ACCAGAGA` gave an E-score of 0.0466.
`AATGTTAA` gave an E-score of 0.299.
For `CACTACAG`, the E-score was -0.056.
`AAGCGGTC` gave an E-score of -0.214.
With `AGTGAGAG` the E-score was -0.0279.
The E-score of `AACATTAC` is reported as 0.217.
`ACACGCAT` gave an E-score of 0.0548.
`ATATCTGC` gave an E-score of 0.163.
The E-score of `TGTACCAA` is reported as 0.0871.
`ATGGCCTC` gave an E-score of -0.183.
For `ATAGTATG`, the E-score was 0.291.
For `ATGACAGA`, the E-score was 0.146.
`AGCTGCCA` has an E-score of -0.159.
`TAATCGGA` gave an E-score of 0.0826.
With `ACCAGTGA` the E-score was -0.0393.

For quick reference, copied from above (set 2):
For `N77W`, “relative binding score” read 74.2%.
For `E151P`, “relative binding score” read 90.5%.
`V62T` — result for “relative binding score”: 80.2%.
`I172Q`: “relative binding score” 38.4%.
Under “relative binding score”, `N77S` is recorded as 92.7%.
`D92E`: “relative binding score” 65.2%.
Under “relative binding score”, `Q167L` is recorded as 78.7%.
Under “relative binding score”, `R88L` is recorded as 80%.
Under “relative binding score”, `R132I` is recorded as 79.2%.
Under “relative binding score”, `V100G` is recorded as -1.44%.
`D97L`: “relative binding score” 65.6%.
